Measurements from different studies.
Protocols differ between the studies behind these lines. pIC50: −log10 of the molar value.
PPARA ligand-binding domain: Peroxisome proliferator-activated receptor alpha, ligand-binding domain (PPARA, Homo sapiens, UniProt Q07869)
Chain of UniProt Q07869 (whole entry, looked up): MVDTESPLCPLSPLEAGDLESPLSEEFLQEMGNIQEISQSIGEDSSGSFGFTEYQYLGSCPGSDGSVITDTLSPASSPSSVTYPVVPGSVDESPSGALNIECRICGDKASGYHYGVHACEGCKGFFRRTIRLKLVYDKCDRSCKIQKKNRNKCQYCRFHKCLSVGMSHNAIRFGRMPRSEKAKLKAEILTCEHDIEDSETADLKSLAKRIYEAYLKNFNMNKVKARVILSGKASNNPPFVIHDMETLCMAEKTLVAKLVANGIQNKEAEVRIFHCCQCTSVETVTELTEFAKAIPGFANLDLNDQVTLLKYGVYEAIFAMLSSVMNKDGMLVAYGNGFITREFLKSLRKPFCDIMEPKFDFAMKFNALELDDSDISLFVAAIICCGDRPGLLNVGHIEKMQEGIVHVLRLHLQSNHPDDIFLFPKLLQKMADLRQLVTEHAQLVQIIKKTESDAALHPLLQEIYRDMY
GBA2: Beta-glucosidase (GBA2, Homo sapiens, UniProt Q9HCG7)
Chain of UniProt Q9HCG7 (whole entry, looked up): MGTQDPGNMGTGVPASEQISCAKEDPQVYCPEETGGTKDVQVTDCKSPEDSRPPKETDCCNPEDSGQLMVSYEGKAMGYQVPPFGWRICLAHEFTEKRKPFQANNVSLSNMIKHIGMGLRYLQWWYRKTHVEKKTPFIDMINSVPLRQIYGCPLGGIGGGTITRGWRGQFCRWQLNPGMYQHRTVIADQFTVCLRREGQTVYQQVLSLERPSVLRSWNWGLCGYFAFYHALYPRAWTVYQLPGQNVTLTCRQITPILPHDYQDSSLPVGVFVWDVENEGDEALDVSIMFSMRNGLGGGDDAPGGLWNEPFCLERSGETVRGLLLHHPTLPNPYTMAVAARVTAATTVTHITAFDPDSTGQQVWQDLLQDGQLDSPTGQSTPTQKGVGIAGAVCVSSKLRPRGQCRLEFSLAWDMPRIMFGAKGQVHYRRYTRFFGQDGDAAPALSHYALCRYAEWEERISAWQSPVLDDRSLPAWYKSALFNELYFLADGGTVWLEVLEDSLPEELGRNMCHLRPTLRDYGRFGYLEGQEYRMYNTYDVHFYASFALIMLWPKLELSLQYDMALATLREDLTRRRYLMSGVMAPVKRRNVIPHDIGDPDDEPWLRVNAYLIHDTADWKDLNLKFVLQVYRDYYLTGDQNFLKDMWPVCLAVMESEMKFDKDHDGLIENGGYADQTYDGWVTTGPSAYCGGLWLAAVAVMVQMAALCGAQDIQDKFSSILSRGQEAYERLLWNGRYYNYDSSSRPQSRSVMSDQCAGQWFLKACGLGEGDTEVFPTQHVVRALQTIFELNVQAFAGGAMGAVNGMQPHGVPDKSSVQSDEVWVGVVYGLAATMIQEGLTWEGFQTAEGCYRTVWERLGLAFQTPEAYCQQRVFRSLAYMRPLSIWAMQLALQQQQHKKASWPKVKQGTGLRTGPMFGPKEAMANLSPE
Chymotrypsinogen A: Chymotrypsinogen A (Bos taurus, UniProt P00766)
Chain of UniProt P10997 (whole entry, looked up): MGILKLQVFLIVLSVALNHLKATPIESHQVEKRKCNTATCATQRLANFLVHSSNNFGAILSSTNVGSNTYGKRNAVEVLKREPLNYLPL
Chain of UniProt Q04759 (whole entry, looked up): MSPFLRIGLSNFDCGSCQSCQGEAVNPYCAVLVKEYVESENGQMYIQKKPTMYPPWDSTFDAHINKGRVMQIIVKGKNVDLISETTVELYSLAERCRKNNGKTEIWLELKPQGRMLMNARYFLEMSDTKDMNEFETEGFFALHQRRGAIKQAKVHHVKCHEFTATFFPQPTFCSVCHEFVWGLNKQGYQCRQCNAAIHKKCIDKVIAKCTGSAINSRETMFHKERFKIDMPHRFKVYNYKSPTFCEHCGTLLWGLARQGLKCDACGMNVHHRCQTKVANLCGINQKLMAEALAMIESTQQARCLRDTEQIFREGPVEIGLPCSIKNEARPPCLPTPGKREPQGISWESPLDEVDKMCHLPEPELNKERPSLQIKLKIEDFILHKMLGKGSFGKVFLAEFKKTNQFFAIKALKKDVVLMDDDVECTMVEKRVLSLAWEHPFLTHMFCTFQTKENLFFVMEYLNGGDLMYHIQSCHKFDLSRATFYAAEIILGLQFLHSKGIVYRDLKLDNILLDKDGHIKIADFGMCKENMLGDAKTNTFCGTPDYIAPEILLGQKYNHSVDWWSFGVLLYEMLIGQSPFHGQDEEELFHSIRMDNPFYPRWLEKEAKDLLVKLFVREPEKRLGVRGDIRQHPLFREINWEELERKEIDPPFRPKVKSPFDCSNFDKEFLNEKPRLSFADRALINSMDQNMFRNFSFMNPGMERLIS
Chain of UniProt Q92769 (whole entry, looked up): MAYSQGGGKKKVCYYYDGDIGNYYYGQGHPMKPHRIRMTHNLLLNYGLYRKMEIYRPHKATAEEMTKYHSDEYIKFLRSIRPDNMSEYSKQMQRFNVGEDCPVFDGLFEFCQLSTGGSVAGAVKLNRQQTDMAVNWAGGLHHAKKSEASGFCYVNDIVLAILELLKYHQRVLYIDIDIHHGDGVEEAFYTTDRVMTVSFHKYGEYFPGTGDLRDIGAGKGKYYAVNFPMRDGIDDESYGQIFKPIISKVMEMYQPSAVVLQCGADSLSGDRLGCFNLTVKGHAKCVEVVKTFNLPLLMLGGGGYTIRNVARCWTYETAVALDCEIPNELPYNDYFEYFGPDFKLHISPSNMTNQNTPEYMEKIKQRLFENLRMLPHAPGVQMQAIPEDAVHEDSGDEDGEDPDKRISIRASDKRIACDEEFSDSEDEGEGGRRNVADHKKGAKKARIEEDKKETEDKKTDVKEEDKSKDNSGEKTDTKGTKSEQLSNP
Chain of UniProt P15291 (whole entry, looked up): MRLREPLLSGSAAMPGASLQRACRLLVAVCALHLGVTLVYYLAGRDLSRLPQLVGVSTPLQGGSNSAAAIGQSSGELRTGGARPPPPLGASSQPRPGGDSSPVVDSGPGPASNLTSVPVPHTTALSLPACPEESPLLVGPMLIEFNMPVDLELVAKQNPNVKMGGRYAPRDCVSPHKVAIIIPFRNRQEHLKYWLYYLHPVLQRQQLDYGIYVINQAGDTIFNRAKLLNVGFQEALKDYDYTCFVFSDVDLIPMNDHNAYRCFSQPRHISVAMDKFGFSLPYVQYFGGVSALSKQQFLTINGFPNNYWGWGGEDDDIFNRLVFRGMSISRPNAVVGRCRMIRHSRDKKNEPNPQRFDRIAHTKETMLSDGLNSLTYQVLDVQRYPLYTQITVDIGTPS
Chain of UniProt P24280 (whole entry, looked up): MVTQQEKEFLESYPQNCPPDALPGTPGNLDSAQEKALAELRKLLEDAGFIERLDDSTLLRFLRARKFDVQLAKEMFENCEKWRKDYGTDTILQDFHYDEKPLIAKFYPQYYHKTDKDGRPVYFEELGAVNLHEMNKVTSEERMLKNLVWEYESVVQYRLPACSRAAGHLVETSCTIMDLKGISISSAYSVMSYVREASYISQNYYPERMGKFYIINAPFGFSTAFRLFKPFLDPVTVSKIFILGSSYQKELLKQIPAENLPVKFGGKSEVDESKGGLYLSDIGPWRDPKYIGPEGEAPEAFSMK
Chain of UniProt P41279 (whole entry, looked up): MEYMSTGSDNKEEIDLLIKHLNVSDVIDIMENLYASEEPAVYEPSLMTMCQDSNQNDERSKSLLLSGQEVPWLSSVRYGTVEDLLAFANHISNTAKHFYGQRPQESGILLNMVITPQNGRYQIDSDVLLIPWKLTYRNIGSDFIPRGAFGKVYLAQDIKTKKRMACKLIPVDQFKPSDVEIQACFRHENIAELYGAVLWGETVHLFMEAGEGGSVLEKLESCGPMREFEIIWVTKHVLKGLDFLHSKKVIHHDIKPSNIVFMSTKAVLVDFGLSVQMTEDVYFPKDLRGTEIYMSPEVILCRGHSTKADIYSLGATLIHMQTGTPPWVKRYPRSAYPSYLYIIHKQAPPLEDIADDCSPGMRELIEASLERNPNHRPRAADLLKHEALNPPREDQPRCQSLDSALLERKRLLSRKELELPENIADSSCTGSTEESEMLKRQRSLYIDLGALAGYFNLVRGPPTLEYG
Chain of UniProt P22760 (whole entry, looked up): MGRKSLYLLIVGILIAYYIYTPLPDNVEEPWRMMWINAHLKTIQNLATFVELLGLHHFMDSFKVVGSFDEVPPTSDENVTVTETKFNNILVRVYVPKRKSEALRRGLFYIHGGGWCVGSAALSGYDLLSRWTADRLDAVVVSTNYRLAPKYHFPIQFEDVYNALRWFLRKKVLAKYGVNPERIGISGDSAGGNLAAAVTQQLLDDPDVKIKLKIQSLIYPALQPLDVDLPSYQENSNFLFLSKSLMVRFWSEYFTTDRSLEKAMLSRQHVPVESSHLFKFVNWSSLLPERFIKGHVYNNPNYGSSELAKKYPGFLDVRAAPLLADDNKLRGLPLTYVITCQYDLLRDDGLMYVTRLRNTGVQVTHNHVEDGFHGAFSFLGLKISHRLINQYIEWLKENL

Compound	target	test	system	conditions	pIC50
O=C(CCc1ccc(CNC(C(=O)OC2CCCC2)C2CCCCC2)cn1)NO (stereo not drawn)	Histone deacetylase 2 (HDAC2, Homo sapiens, UniProt Q92769)	enzyme activity, inhibitor			5.86
Cc1c(Cc2ccc(OC(C)C(=O)O)cc2)c2ccc(C(=O)NC(C)c3ccc(C(F)(F)F)cc3)cc2n1C (mixture of isomers)	PPARA ligand-binding domain	reporter gene, luciferase reporter	HEK293T, Gal4-PPARα LBD		5.35
OC[C@@H]1[C@@H](O)[C@H](O)[C@@H](O)CN1CCCCCOCc1ccc(-c2cncnc2)cc1	GBA2	inhibitor, 4MU-β-D-glucopyranoside	HEK293T homogenates overexpressing GBA2		7.60
O=C(c1ccc(Br)c([N+](=O)[O-])c1)N1CCN(c2ccccc2F)CC1	SEC14 (Saccharomyces cerevisiae, UniProt P24280)	enzyme activity, inhibitor, radiometric			7.00
COCCNC(=O)c1ccccc1NC(=O)C(C(F)(F)F)C(F)(F)F	Chymotrypsinogen A	enzyme activity, inhibitor, fluorescence			4.74
O=C1NC(=O)C(N2CCc3ccccc32)=C1c1ccc(Cl)cc1	Sensor histidine kinase AirS (Staphylococcus aureus, UniProt Q2FX96)	autophosphorylation, inhibitor, BODIPY-FL-ATPγS in-gel fluorescence		lower bound of confidence interval	< 3.03
CCOC(=O)c1ccc(/N=N/c2ccc(N(C)CCCN)cc2)cc1	Islet amyloid polypeptide (IAPP, Homo sapiens, UniProt P10997)	ThT displacement, ThT fluorescence		pH 7.4, preformed target-ThT complex, added: 5 µM ThT	6.40
Cc1nn(-c2cccc(N)c2)c(=O)c2cnc(Nc3ccc(N4CCNCC4)cc3)nc12	Mitogen-activated protein kinase kinase kinase 8 (MAP3K8, Homo sapiens, UniProt P41279)	SelectScreen kinase			5.62
Cc1ccc2nc(C)n(/N=C/c3ccc(C(=O)O)cc3)c(=O)c2c1	Cathepsin B (CTSB, Homo sapiens, UniProt P07858)	enzyme activity, inhibitor			4.12
Cc1c(Cc2cccc(OC(C)(C)C(=O)O)c2)c2ccc(C(=O)N[C@@H](C)c3cccc(C(C)C)c3)cc2n1C	PPARA ligand-binding domain	reporter gene, luciferase reporter	HEK293T, Gal4-PPARα LBD		6.80
OC[C@@H]1[C@@H](O)[C@H](O)[C@@H](O)CN1CCCCCOCc1ccc(-c2ccccc2)cc1F	GBA2	inhibitor, 4MU-β-D-glucopyranoside	HEK293T homogenates overexpressing GBA2		10.10
O=C1Nc2c(Br)cccc2/C1=C1/Nc2ccccc2C1=NO	Protein kinase C theta type (PRKCQ, Homo sapiens, UniProt Q04759)				< 5.00
O=C(Nc1ccc(OC(F)(F)F)cc1)N1CCC(Cc2cccc(Oc3ccc(C(F)(F)F)cn3)c2)CC1	Arylacetamide deacetylase (Homo sapiens, UniProt P22760)	enzyme activity, inhibitor			< 5.00
O=C(O)/C=C\C(=O)c1ccc(O)cc1	Beta-1,4-galactosyltransferase 1 (B4GALT1, Homo sapiens, UniProt P15291)	enzyme activity, inhibitor			4.88
CCCCCCCOCCCCCN1C[C@H](O)[C@@H](O)[C@H](O)[C@H]1CO	GBA2	inhibitor, 4MU-β-D-glucopyranoside	HEK293T homogenates overexpressing GBA2		7.82
Cc1ccc(NC(=O)C(C(F)(F)F)C(F)(F)F)cc1	Chymotrypsinogen A	enzyme activity, inhibitor, fluorescence			4.41
COc1cccc(-c2ccc(COCCCCCN3C[C@H](O)[C@@H](O)[C@H](O)[C@H]3CO)cc2)c1	GBA2	inhibitor, 4MU-β-D-glucopyranoside	HEK293T homogenates overexpressing GBA2		7.70
CCOc1cccc(NC(=O)C(C(F)(F)F)C(F)(F)F)c1	Chymotrypsinogen A	enzyme activity, inhibitor, fluorescence			< 4.00

A few entries again:
Compound	target	test	system	conditions	pIC50
Cc1ccc(NC(=O)C(C(F)(F)F)C(F)(F)F)cc1	Chymotrypsinogen A	enzyme activity, inhibitor, fluorescence			4.41
